# Measurements gathered from unrelated publications.
# Each line is one published result; not all experiments were run side by side. ± gives the spread as reported.
Compound,test,system,setting,how to read,quantity,result
CC(=O)N[C@@H](CC(N)=O)C(=O)NCC(=O)N[C@@H](C)C(=O)N[C@@H](C)C(N)=O,1H NMR,sodium phosphate buffer 50 mM,"pH 7.4, 37 °C",,half-life of Asn form,25.7 h
Cc1nc(C)c(C=[N+]([O-])C(C)(C)C)nc1C,,"Sprague-Dawley rat, both sexes, brain","oral, 45 mg/kg, 30 min",,concentration,22100 ng/g
Cn1c(=O)oc2ccc(-c3ccc(CC(C#N)NC(=O)C4CNCCCO4)c(F)c3)cc21 (stereo not drawn),,"human volunteers, plasma","80 mg single dose, fasted, geometric mean",,Cmax,823 ng/mL
O=C(CCc1ccc(CNC(C(=O)OC2CCCC2)C2CCCCC2)cn1)NO (stereo not drawn),,human,"oral, 60 mg, single dose, geometric mean",,Vz/F,176 L
CN[C@@H]1[C@H](O)[C@H](NC)[C@H]2O[C@]3(O)[C@H](O[C@@H]2[C@H]1O)O[C@H](C)C[C@@]3(O)CNCc1ccc(OC(F)(F)F)cc1,,"rat, urine","intravenous, 10 mg/kg",relative to: dose,urinary excretion unchanged,22%
N=C(N)NCCC[C@H](NC(=O)[C@@H]1CCCN1C(=O)[C@H](Cc1ccccc1)NC(=O)[C@@H]1CCCN1C(=O)[C@H](Cc1c[nH]cn1)NC(=O)[C@@H](N)Cc1ccccc1)C(=O)O,,"Sprague-Dawley rat male, plasma","oral gavage, 50 mg/kg",,volume of distribution,462 ± 319 L/kg
CC[C@H](C)[C@H](NC(=O)[C@H](Cc1ccccc1)NC(=O)[C@H](CN)NC(=O)[C@H](CCCNC(=N)N)NC(=O)[C@H](Cc1ccccc1)NC(=O)[C@H](Cc1ccccc1)NC(=O)[C@H](CCCCN)NC(=O)[C@H](CO)NC(=O)[C@H](CC(C)C)NC(=O)[C@H](CCCNC(=N)N)NC(=O)[C@H](CCSC)NC(=O)[C@H](C)N)C(=O)N[C@@H](CC(C)C)C(=O)N[C@@H](CCCN)C(=O)N[C@@H](CCCNC(=N)N)C(=O)N[C@@H](CCCCN)C(=O)N[C@@H](CCCCN)C(=O)O,circular dichroism,20% TFE in PBS,"200 µM, pH 7.4, 25 °C",,helicity,5.6%
NS(=O)(=O)NCC(F)(F)c1ccccc1F,,"mouse, plasma",5 mg/kg,,oral bioavailability,~100%
CC(C)(Sc1cc[n+]([O-])cc1-c1ccc(C#N)c2ccccc12)C(=O)OC1OC(C(=O)O)C(O)C(O)C1O (stereo not drawn),,plasma,"oral, 15 mg, moderate renal impairment",relative to: impaired over normal renal function,AUC(0-inf) ratio,241%
[99Tc+].[C-]#[N+]CC(C)(C)OC.[C-]#[N+]CC(C)(C)OC.[C-]#[N+]CC(C)(C)OC.[C-]#[N+]CC(C)(C)OC.[C-]#[N+]CC(C)(C)OC.[C-]#[N+]CC(C)(C)OC,,"suspended hepatocytes, rat",up to 60 min,,linear uptake range,2.5 min
N=C(N)NCCC[C@@H]1NC(=O)[C@H](Cc2c[nH]c3ccccc23)NC(=O)[C@@H](CC2CCCCC2)NC(=O)[C@@H]2CCCN2C(=O)[C@@H](NC(=O)CCc2ccccc2)CCCNC1=O,,"C57BL/6J mice, spinal cord","subcutaneous, 1 mg/kg, two-compartment model",,apparent total clearance (CL/F),1 ng/(min·ng/g)
O=c1c2cc([N+](=O)[O-])ccc2n(CCO)n1Cc1ccccc1,resazurin,"peritoneal macrophages, BALB/c mice","48 h, 10% FBS",,CC50,15.9 ± 9.2 µM
CC(C)[C@H](NC(=O)CNC(=O)[C@H](CCC(N)=O)NC(=O)[C@H](C)N)C(=O)O,LC-MS/MS,"human, plasma","intravenous, 20 mg/kg three times daily, day 2, first dose, 10 min infusion, geometric mean",,AUC(0-last),393 ng·h/mL
CCCC(CCC)NC(=O)c1ccc(O)c(O)c1,,"female Sprague-Dawley rat, plasma","oral, 200 mg/kg of parent drug",,Tmax,0.31 h
CC1=C(/C=C/C(=O)N2CCN(C(N)=O)CC2)C(C)(C)CCC1,,"female mice, retina","oral, 40 mg/kg",,Cmax,9.08 nmol/g
Cc1ccc(/N=N/c2c(O)ccc3ccccc23)c(C)c1,,rat whole blood QC samples,"16.0 µg/L, 8 h, room temperature, short-term stability",,measured concentration,15.9 µg/L
CC(C)C[C@H](NC(=O)[C@H](CCCNC(=N)N)NC(=O)[C@H](CCC(N)=O)NC(=O)[C@@H](NC(=O)[C@H](C)NC(=O)[C@@H]1CSSC[C@H](NC(=O)[C@@H](N)CCCCN)C(=O)N[C@@H](CC(N)=O)C(=O)N[C@@H]([C@@H](C)O)C(=O)N[C@@H](C)C(=O)N[C@@H]([C@@H](C)O)C(=O)N1)[C@@H](C)O)C(=O)N[C@@H](C)C(=O)N[C@@H](CC(N)=O)C(=O)N[C@@H](Cc1ccccc1)C(=O)N[C@@H](CC(C)C)C(=O)N[C@H](C(=O)N[C@@H](CCCNC(=N)N)C(=O)N[C@@H](CO)C(=O)N[C@@H](CO)C(=O)N[C@@H](CC(N)=O)C(=O)N[C@@H](CC(N)=O)C(=O)N[C@@H](Cc1ccccc1)C(=O)N1CCC[C@H]1C(=O)N[C@@H](C)C(=O)N1CCC[C@H]1C(=O)N[C@@H](CC(C)C)C(=O)N[C@@H](CO)C(=O)N[C@@H](CO)C(=O)N[C@H](C(=O)N[C@@H](CC(N)=O)C(=O)N[C@H](C(=O)NCC(=O)N[C@@H](CO)C(=O)N[C@@H](CC(N)=O)C(=O)N[C@H](C(=O)N[C@@H](Cc1ccc(O)cc1)C(N)=O)[C@@H](C)O)C(C)C)[C@@H](C)O)C(C)C,,PBS,"500 µM, 24 h, pH 7.4, added: equimolar insulin",relative to: time zero,loss from soluble fraction,< 15%
O=C(NC12CC3CC(CC(Cl)(C3)C1)C2)NC12CC3CC(CC(Cl)(C3)C1)C2,,sodium phosphate buffer,,relative to: daunorubicin,fold solubility increase,~20 fold
CN1CCC[C@]1(C)/C=C/S(=O)(=O)NC(=O)Nc1c2c(cc3c1CCC3)CCC2,,"human, plasma","oral, 100 mg twice daily, day 14, multiple ascending dose",,Cmax after first dose,16400 ng/mL
COC(=O)C(c1ccccc1Cl)N1CCC(SCC(=O)c2cccc(OC)c2)C(=CC(=O)O)C1 (mixture of isomers),HPLC-MS/MS,feline citrate plasma,"100 ng/mL, 12 h, -20 °C, storage stability",,deviation from nominal,-9%
CC(=O)N[C@H](CSSC[C@H](N)C(=O)O)C(=O)N[C@H](C)C(=O)N[C@H](CCCNC(=N)N)C(=O)N[C@H](CCCNC(=N)N)C(=O)N[C@H](CCCNC(=N)N)C(=O)N[C@H](C)C(=O)N[C@H](CCCNC(=N)N)C(N)=O,,"male human, plasma","intravenous, 2 mg, single dose, healthy volunteers",,clearance,114 mL/min
COc1ccc(/C=C/c2ccc(-c3ccc(C)cn3)nc2)cc1,TCSPC,MeOH,,,radiative decay rate constant,0.35 ns⁻¹
CC[C@H](C)[C@H](NC(=O)[C@@H](NC(=O)[C@H](CS)NC(=O)[C@H](C)NC(=O)[C@H](CC(N)=O)NC(=O)[C@H](CCCNC(=N)N)NC(=O)[C@H](CCCNC(=N)N)NC(=O)[C@H](CC(N)=O)NC(=O)[C@H](CCCNC(=N)N)NC(=O)[C@H](CCCNC(=N)N)NC(=O)[C@H](C)NC(=O)[C@H](CS)NC(=O)[C@H](CC(C)C)NC(=O)[C@@H](NC(=O)[C@@H](NC(=O)[C@H](CS)NC(=O)[C@H](CCCCN)NC(=O)[C@@H](N)CCCNC(=N)N)C(C)C)[C@@H](C)CC)C(C)C)C(=O)N[C@@H](CC(C)C)C(=O)N[C@@H](CS)C(=O)N[C@@H](CCCNC(=N)N)C(=O)O,LC/MS,PBS,0.1 mg/mL,relative to: LC peak area,two-disulfide form,33%
CC(=O)N[C@H](CCNC(=O)c1cc(NC(=O)c2cc(NC(=O)c3cc(NC(=O)c4nccn4C)cn3C)cn2C)cn1C)C(=O)Nc1cn(C)c(C(=O)Nc2cc(C(=O)Nc3cc(C(=O)Nc4cc(C(=O)NCCCN(C)CCCN[14C](=O)c5cccc([14C](=O)O)c5)n(C)c4)n(C)c3)n(C)c2)n1,,"NSG male mice, LNCaP and A549 double xenograft, kidney","intraperitoneal, 20 nmol per animal, 24 h",,tissue concentration,0.27 mg/kg
CCCC[C@H](NC(=O)CNC(=O)CNC(=O)CN1CCN(CC(=O)O)CCN(CC(=O)O)CCN(CC(=O)O)CC1)C(=O)N[C@H]1CC(=O)NCCCC[C@@H](C(N)=O)NC(=O)[C@H](Cc2c[nH]c3ccccc23)NC(=O)[C@H](CCCNC(=N)N)NC(=O)[C@@H](Cc2ccccc2)NC(=O)[C@H](Cc2c[nH]cn2)NC1=O [copper-64 labelled],,"female C57 mouse, B16/F1 melanoma","intravenous, 0.037 MBq, 4 h",relative to: tumour over stomach,uptake ratio,1.03
CC[C@@H](C)[C@@H](NC(=O)[C@@H](C)NC(=O)[C@@H](CCCCN)NC(=O)[C@@H](CC(C)C)NC(=O)[C@@H](C)NC(=O)[C@H](NC(=O)[C@@H](Cc1c[nH]cn1)NC(=O)[C@@H](CC(C)C)NC(=O)[C@H](NC(=O)[C@H](NC(=O)[C@@H](CCCCN)NC(=O)[C@H](NC(=O)[C@@H](C)NC(=O)[C@@H](CO)NC(=O)[C@@H](CCCCN)NC(=O)[C@@H](Cc1ccccc1)NC(=O)[C@H](NC(=O)[C@@H](CCCCN)NC(=O)[C@@H](CC(C)C)NC(=O)[C@@H](Cc1ccccc1)NC(=O)[C@@H](CO)NC(=O)[C@@H](CCCCN)NC(=O)[C@@H](Cc1c[nH]c2ccccc12)NC(=O)[C@@H](CCCCN)NC(C)=O)[C@H](C)O)C(C)C)[C@H](C)O)C(C)C)[C@H](C)O)C(=O)N[C@H](CO)C(=O)N[C@H](CO)C(N)=O,RP-HPLC temperature profiling,,"pH 2, 5-80 °C, unit not given",relative to: control peptide,self-association parameter,7.14
CN1CCC(N[C@@H]2CCc3[nH]c4c(C(N)=O)ccc(-c5ccccc5Cl)c4c3C2)CC1,,"mouse, plasma","oral, 10 mg/kg",,MRT(0-t),6.52 h

# For quick reference, copied from above:
Compound,test,system,setting,how to read,quantity,result
CC(=O)N[C@@H](CC(N)=O)C(=O)NCC(=O)N[C@@H](C)C(=O)N[C@@H](C)C(N)=O,1H NMR,sodium phosphate buffer 50 mM,"pH 7.4, 37 °C",,half-life of Asn form,25.7 h
COC(=O)C(c1ccccc1Cl)N1CCC(SCC(=O)c2cccc(OC)c2)C(=CC(=O)O)C1 (mixture of isomers),HPLC-MS/MS,feline citrate plasma,"100 ng/mL, 12 h, -20 °C, storage stability",,deviation from nominal,-9%
